Measured values from different studies.
Each numbered part is a random draw from the data of one study; scales do not carry over between parts.

Study 1 — technique: protein binding microarray; molecule type: double-stranded DNA, one strand shown; matrix: in vitro; tested at: not given; baseline: not given; direction: higher = stronger binding
Target: Histone acetyltransferase KAT6A, both winged helices, GST fusion (KAT6A, Homo sapiens, UniProt Q92794, residues 1-181)
Notes: 8-mer, flanks averaged, mean of 2 arrays, mostly near background
Target sequence (chain): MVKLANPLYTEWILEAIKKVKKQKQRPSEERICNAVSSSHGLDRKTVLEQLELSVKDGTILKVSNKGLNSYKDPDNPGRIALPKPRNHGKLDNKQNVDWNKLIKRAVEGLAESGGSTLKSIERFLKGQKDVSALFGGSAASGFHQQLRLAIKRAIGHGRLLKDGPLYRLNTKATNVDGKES
The E-score of `CCTAGTTC` is reported as -0.223.
`ACTCAGCT` has an E-score of -0.0861.
The E-score of `ATCTTTCA` is reported as -0.0499.
`CCCCGGTA` gave an E-score of 0.141.
The E-score of `GAGGCCGA` is reported as 0.0838.
The E-score of `ACCGCCAA` is reported as 0.0368.
For `GTTTCTGA`, the E-score was -0.0258.
The E-score of `CACTCTTA` is reported as -0.191.
For `GTCGTTAA`, the E-score was -0.0789.
`AACCATAG` has an E-score of -0.00848.
`TCGGAGAA` gave an E-score of 0.0706.
With `GAGAATAA` the E-score was -0.129.
The E-score of `AAAGGCGG` is reported as 0.183.
The E-score of `GCCTGCAC` is reported as -0.0741.
For `AAGCGCTA`, the E-score was 0.291.
`GACTAACA` has an E-score of 0.0777.
`AATGGCCT` has an E-score of -0.146.
For `AACATATC`, the E-score was 0.0428.
`AAGTACCC` gave an E-score of -0.0617.
`CGGATTGA` gave an E-score of 0.155.
`CAATCCGC` gave an E-score of 0.289.
With `ACCAGTGA` the E-score was -0.111.
`CGTATTAA` has an E-score of 0.0406.
`GCTAAACA` gave an E-score of -0.0396.
The E-score of `TCCGGTCA` is reported as 0.0671.

Study 2 — technique: protein-binding microarray; molecule type: double-stranded DNA, one strand shown; matrix: in vitro; tested at: 250 nM; notes: 60-bp whole probe; added: salmon DNA 0.4 mg/ml; baseline: random background probes; direction: higher = stronger binding; all sequences stand within: GCCTAGCAC … GTCTTGATTCGCTTGACGCTGCTG
Target: Interferon regulatory factor 7, full length, phosphomimetic (IRF7, Homo sapiens, UniProt Q92985, residues 1-503, S101K/S471D/S472D/S475D/S476D/S477D/S483D/S484D/S487D)
Sequence of UniProt Q92985 (whole entry, unmodified, looked up): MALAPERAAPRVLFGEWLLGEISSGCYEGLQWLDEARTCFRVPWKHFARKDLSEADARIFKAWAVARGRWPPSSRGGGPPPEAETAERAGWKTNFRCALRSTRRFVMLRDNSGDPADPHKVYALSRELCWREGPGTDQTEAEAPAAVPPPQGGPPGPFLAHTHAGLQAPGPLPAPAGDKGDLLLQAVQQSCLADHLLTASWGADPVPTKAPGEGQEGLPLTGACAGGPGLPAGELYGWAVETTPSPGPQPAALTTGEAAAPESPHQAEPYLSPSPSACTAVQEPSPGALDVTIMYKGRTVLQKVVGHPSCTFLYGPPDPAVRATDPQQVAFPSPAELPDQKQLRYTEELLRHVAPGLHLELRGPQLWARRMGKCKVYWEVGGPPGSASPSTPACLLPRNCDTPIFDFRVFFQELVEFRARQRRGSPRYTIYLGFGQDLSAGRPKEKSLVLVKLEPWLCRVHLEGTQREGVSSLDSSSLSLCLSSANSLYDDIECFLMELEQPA
`TTAGATTTCGGGACGGGATTAGTGCTA` has a log fluorescence of 0.228 z-score.
For `AGACATGACACCACTCCTGAGTGCTAG`, the log fluorescence was -0.391 z-score.
The log fluorescence of `GACGTACTGAGTATCGAGACGTGCTAG` is reported as 0.297 z-score.
The log fluorescence of `TTAGATTTCAGACTGGATTAGTGCTAG` is reported as 0.227 z-score.
`GACGGTATCGGTCTCTGGACGTGCTAG` has a log fluorescence of 0.615 z-score.
The log fluorescence of `GGTCCAACAAACAGATCCATGTGCTAG` is reported as 0.63 z-score.
With `GACGATTTCAGTCTCGAGGCGTGCTAG` the log fluorescence was 0.561 z-score.
`TTAGATATCCGGACTGGATTAGTGCTA` gave a log fluorescence of -0.351 z-score.
`TTAGGTATCGAATATCGGTTAGTGCTA` has a log fluorescence of 0.213 z-score.
`GACGGACTGCTTTTCCCGACGTGCTAG` gave a log fluorescence of 0.464 z-score.
`ACCCATTGAGATTTCCATTAGTGCTAG` has a log fluorescence of -0.00545 z-score.
`TTTACTTTCTGAATGCTCCCGTGCTAG` gave a log fluorescence of 1.65 z-score.
With `TTAGGGCTGCTTATCCTTTAGTGCTAG` the log fluorescence was -0.468 z-score.
With `TCACTTTTCAGTCCCCTACTGTGCTAG` the log fluorescence was 1.14 z-score.
For `GACGGACTGGACTTGCGGGACGTGCTA`, the log fluorescence was -0.96 z-score.
`GACGGTTTCCTGTTCCTGACGTGCTAG` has a log fluorescence of 3.06 z-score.
`TCACATTTCTGTTTTTGACTGTGCTAG` gave a log fluorescence of 1.38 z-score.
`TTAGATCTCAGTTTCGATTCGTGCTAG` gave a log fluorescence of 12.1 z-score.
For `TCTGTTTTTGCTTTCCTTCAGTGCTAG`, the log fluorescence was 2.19 z-score.

Study 3 — technique: RNA Bind-n-Seq; molecule type: RNA; matrix: in vitro; tested at: 365 nM; baseline: no-protein control; direction: higher = stronger binding
Target: RNA binding protein fox-1 homolog 2, RRM domain, GST-SBP tag (RBFOX2, Homo sapiens, UniProt O43251-10, residues 100-194)
Notes: natural RNA segment, single round, ends assumed
Target sequence (chain): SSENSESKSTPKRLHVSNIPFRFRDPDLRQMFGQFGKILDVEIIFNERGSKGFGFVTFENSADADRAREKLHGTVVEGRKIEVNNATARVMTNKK
`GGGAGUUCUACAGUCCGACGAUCCACGCUUUUUCUUUUUCUCUCUUUGGCAUUGUUCAUUUUGAGGUAGACCAUAGACUCUAGCCCAGGCUGAUCUGGAGCUUACUGUAUAGCCCAGGCUUUGAACUGGCCUUUGGAAUUCUCGGGUGCCAA`: “RBNS enrichment (R)” 0.277.
For `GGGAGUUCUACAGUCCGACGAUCGGUUGUGCUGGGCAGCAUUUGUACAUACAUGCGCGCAUUUAGUUUGCAGUUAAUUCCUGCUGCGCUGCCCACAGUGGCUUCCUCCCUUCAGUUUGUCCCUGAGACCCCUGUGGAAUUCUCGGGUGCCAA`, “RBNS enrichment (R)” read 0.216.
Under “RBNS enrichment (R)”, `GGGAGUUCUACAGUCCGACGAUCUGUAAAGCUGAGCCUACAGACCUGUCCUCACCAACUGUUUUGUGAUUUCUACUCAACUACAAAGAUUUAUUUAAUGUACUCUUAAUCUAACUGAGUUUUGUUACCAAUGAUGGAAUUCUCGGGUGCCAA` is recorded as 0.648.
Under “RBNS enrichment (R)”, `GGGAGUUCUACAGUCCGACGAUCAGCAAGGUGCCGCUGAUCCAGCGUGGCAGUGCCAACGGCCUCUGAUCCACCCAUGUGCUGCCCGCCUGCCCACCCGCCUUUUAUAAACCUCUAAUUUAUUUUGUUGAAUUUGGAAUUCUCGGGUGCCAA` is recorded as 0.693.
For `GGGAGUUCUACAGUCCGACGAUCACGCCAAGCCUGGAUGCCAAGGAGCCCCUGGUGUCACAUGGGGCCUGGCCCACGCCCUCCCUCUCCCAGGCCCGAGAUGUGACCCACCAGUGCCUUCUGUCUGCUCGUUAUGGAAUUCUCGGGUGCCAA`, “RBNS enrichment (R)” read 0.665.
`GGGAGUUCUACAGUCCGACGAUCUCAGUGAAUGGAAGGAUGUCUUGAUGCUCAAGAGUCCCCGCCCCCAAAGUACGGGUAAUUCAGCCUGCACAGUUUCCUUUCACUCAUAGUUUCACAAUUACGAGUGAAAAUGGAAUUCUCGGGUGCCAA` — result for “RBNS enrichment (R)”: 0.222.
Under “RBNS enrichment (R)”, `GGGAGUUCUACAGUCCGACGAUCUUCCUCAACCCCCAAACAAAACAAACAAACUUCCCUGGCUUCGCACCUGCCUGGGGCCUCGCAGCGGGGCCAGGGCUCCGCCUGCUGAUCGGGGGUUGUGAGCAGCGCGGUGGAAUUCUCGGGUGCCAA` is recorded as 1.09.
For `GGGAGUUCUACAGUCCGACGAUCGGAAAAAGCUCGCAUUUUCAUCGUGCCUCCUGGAGUAGAGAAAUGGGAACGCCUCUCCCCUCCUUGUCCUUUCCAGUGGGUCUCAUCCCUUAUCUCGCUCUGGUGUUCACUGGAAUUCUCGGGUGCCAA`, “RBNS enrichment (R)” read 1.09.

Study 4 — technique: RNA Bind-n-Seq; molecule type: RNA; matrix: in vitro; tested at: 200 nM; notes: whole 134-nt RNA, ends assumed; added: 150 mM LiCl; baseline: input library; direction: higher = stronger binding; all molecules: 7-deaza-guanosine replaces G
Target: Fragile X messenger ribonucleoprotein 1, C-terminal low-complexity region (Fmr1, Mus musculus, UniProt P35922)
With `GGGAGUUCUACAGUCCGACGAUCUUAAGUUGAAGGAGCGCUACCGCAACGUGCUGGACACCAUGUUCGAGCUGCUGCCCCGGAUGGCCAGGUACUGCCAGCCCCCACCCUGGCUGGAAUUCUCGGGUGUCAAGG` the log2 enrichment was 0.284.
For `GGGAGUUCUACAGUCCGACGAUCGUCCUGUGCUACACAUCGUAUGUACCGAAUCGGGGUUUUUUUGGGGUUUGGGGUGGGGAAAGUAUUAUGUUACGCCGUUCGGAUCUGCACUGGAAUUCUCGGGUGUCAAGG`, the log2 enrichment was -1.02.
With `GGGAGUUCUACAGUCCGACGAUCCUGUGCUACACAUCGUAUGUACCGAAUCGGGUUUUUUUGGUUUUUUUGGGUUUUUUUGGGGAAAGUAUUAUGUUACGCCGUUCGGAUCUGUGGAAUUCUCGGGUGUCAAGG` the log2 enrichment was 0.432.
For `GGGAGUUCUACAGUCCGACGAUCACCAUGCAGGUGGGCAUCUUUGGGAAGUGGGGCAAGGGGGGGAUAGGGAGGGGGGUAACACUUUGGGAACAGGUGGUGCCAGGUCGUUUCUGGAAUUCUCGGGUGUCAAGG`, the log2 enrichment was 1.39.
With `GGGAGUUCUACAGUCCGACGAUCGUCCUGUGCUACACAUCGUAUGUACCGAAUCGGGUUUUUUUGGGUUUGGGAAAAAGGGAAAGUAUUAUGUUACGCCGUUCGGAUCUGCACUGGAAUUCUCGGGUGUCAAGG` the log2 enrichment was -1.74.
For `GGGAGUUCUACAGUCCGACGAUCUGGCCCUGGUGGCAUGCGGGGAGGAAGAGGUGGCCUCAUGGAUCGUGGUGGGCCCGGUGGAAUGUUCAGAGGUGGCCGUGGUGGAGACAGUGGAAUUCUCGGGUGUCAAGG`, the log2 enrichment was 0.475.
`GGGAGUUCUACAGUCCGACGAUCCUCAAGUCCUGUGCUACACAUCGUAUGUACCGAAUCGGGGUUGGGUUGGUUGGGAAAGUAUUAUGUUACGCCGUUCGGAUCUGCACUUCCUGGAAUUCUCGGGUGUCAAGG` has a log2 enrichment of 0.0836.
`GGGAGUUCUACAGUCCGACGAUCUCCUGUGCUACACAUCGUAUGUACCGAAUCGGGGUUUUUGGGGAGGGGAAAAAAAGGGGAAAGUAUUAUGUUACGCCGUUCGGAUCUGCAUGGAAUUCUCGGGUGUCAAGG` gave a log2 enrichment of -0.891.
